Measured values from different studies.
Lines come from different studies, so protocols differ.
B1: UGT1A9 (Homo sapiens, UniProt O60656); chain GKLLVVPMDGSHWFTMRSVVEKLILRGHEVVVVMPEVSWQLGRSLNCTVKTYSTSYTLEDLDREFKAFAHAQWKAQVRSIYSLLMGSYNDIFDLFFSNCRSLFKDKKLVEYLKESSFDAVFLDPFDNCGLIVAKYFSLPSVVFARGILCHYLEEGAQCPAPLSYVPRILLGFSDAMTFKERVRNHIMHLEEHLLCHRFFKNALEIASEILQTPVTEYDLYSHTSIWLLRTDFVLDYPKPVMPNMIFIGGINCHQGKPLPMEFEAYINASGEHGIVVFSLGSMVSEIPEKKAMAIADALGKIPQTVLWRYTGTRPSNLANNTILVKWLPQNDLLGHPMTRAFITHAGSHGVYESICNGVPMVMMPLFGDQMDNAKRMETKGAGVTLNVLEMTSEDLENALKAVINDKSYKENIMRLSSLHKDRPVEPLDLAVFWVEFVMRHKGAPHLRPAAHDLTWYQYHSLDVIGFLLAVVLTVAFITFKCCAYGYRKCLGKKGRVKKAHKSKTH

ahpC (Salmonella typhimurium, UniProt P0A251) — pKa (chemical modification, mass spectrometry, refers to: Cys46; ammonium sulfate 100 mM, numbering of the source): 8.55
nuc G50F/V51N/P117G/H124L/S128A/del44-49/L38E/E122Q (Staphylococcus aureus) — pKa (NMR, refers to: His8; 298 K, KCl 100 mM, numbering of the source): 6.4
ksi D40A/D103A (Pseudomonas putida) — pKa (UV-vis, refers to: Tyr57; 25 °C): 8.7
WT1 zinc finger 4 (Homo sapiens, UniProt P19544) — pKa (NMR, refers to: His23; 288 K, KCl 10 mM, apo, unfolded, reduced, numbering of the source): 6.2
CRYGD P23T (Homo sapiens) — pKa (NMR, refers to: His121; 25 °C, numbering of the source): 6.21
PCSK1 propeptide domain (Homo sapiens, UniProt P29120) — pKa (mass spectrometry, refers to: His72; apparent, histidine H/D exchange, pepsin digest): 5.61
CISD1 soluble cytoplasmic domain (Homo sapiens, UniProt Q9NZ45) — pKa (UV-vis, refers to: His87; NaCl 100 mM, cluster reduced): 12.4
ksi D40N/D103A (Pseudomonas putida) — pKa (UV-vis, refers to: Tyr57; 25 °C): 6.9
PBP1 mature (Amyelois transitella) — pKa (NMR, refers to: His80; 25 °C, free protein; not delipidated): 6
B1 (UGT1A9) — Km (CC/C(=C(\c1ccc(O)cc1)c1ccc(OCCNC)cc1)c1ccccc1; steady-state kinetics; pH 7.4, 37 °C): 316 µM
PRL (Homo sapiens, UniProt P01236) — pKa (NMR, refers to: His27; 35 °C, 25 mM NaCl, apparent; independent-site fit, numbering of the source): 6.58
ksi D40V/D103N (Pseudomonas putida) — pKa (UV-vis, refers to: Tyr57; 25 °C): 8.5
proteorhodopsin, retinal (uncultured gamma-proteobacterium EBAC31A08, UniProt Q9F7P4) — pKa (UV-vis, refers to: Asp97; NaCl 100 mM, small DMPC nanodisc, monomeric): 7.1
ksi Y32F/D40N/D103N (Pseudomonas putida) — pKa (UV-vis, refers to: Tyr57; 25 °C): > 9
ORF56 (Sulfolobus islandicus, UniProt Q54323) — pKa (NMR, refers to: Glu31; free native homodimer, low salt): 4.59
iscU apo (Escherichia coli, UniProt P0ACD4) — pKa (NMR titration, refers to: His10; 25 °C, NaCl 150 mM, S-state, averaged, apo): < 5.3
ksi Y16A/D40R/F56A/D103A (Pseudomonas putida) — pKa (UV-vis, refers to: Tyr57; 25 °C): > 10

For quick reference, copied from above:
ksi Y32F/D40N/D103N (Pseudomonas putida) — pKa (UV-vis, refers to: Tyr57; 25 °C): > 9
iscU apo (Escherichia coli, UniProt P0ACD4) — pKa (NMR titration, refers to: His10; 25 °C, NaCl 150 mM, S-state, averaged, apo): < 5.3
nuc G50F/V51N/P117G/H124L/S128A/del44-49/L38E/E122Q (Staphylococcus aureus) — pKa (NMR, refers to: His8; 298 K, KCl 100 mM, numbering of the source): 6.4
